Results pooled from the literature.
Values joined by “and” are separate records of one study, mostly repeats; a detail may differ. Numbers after ± are the reported error. Values after ≈ are worked out from the molar mass of the structure shown.
UniProt Q9UQD0, sequence (whole entry, looked up): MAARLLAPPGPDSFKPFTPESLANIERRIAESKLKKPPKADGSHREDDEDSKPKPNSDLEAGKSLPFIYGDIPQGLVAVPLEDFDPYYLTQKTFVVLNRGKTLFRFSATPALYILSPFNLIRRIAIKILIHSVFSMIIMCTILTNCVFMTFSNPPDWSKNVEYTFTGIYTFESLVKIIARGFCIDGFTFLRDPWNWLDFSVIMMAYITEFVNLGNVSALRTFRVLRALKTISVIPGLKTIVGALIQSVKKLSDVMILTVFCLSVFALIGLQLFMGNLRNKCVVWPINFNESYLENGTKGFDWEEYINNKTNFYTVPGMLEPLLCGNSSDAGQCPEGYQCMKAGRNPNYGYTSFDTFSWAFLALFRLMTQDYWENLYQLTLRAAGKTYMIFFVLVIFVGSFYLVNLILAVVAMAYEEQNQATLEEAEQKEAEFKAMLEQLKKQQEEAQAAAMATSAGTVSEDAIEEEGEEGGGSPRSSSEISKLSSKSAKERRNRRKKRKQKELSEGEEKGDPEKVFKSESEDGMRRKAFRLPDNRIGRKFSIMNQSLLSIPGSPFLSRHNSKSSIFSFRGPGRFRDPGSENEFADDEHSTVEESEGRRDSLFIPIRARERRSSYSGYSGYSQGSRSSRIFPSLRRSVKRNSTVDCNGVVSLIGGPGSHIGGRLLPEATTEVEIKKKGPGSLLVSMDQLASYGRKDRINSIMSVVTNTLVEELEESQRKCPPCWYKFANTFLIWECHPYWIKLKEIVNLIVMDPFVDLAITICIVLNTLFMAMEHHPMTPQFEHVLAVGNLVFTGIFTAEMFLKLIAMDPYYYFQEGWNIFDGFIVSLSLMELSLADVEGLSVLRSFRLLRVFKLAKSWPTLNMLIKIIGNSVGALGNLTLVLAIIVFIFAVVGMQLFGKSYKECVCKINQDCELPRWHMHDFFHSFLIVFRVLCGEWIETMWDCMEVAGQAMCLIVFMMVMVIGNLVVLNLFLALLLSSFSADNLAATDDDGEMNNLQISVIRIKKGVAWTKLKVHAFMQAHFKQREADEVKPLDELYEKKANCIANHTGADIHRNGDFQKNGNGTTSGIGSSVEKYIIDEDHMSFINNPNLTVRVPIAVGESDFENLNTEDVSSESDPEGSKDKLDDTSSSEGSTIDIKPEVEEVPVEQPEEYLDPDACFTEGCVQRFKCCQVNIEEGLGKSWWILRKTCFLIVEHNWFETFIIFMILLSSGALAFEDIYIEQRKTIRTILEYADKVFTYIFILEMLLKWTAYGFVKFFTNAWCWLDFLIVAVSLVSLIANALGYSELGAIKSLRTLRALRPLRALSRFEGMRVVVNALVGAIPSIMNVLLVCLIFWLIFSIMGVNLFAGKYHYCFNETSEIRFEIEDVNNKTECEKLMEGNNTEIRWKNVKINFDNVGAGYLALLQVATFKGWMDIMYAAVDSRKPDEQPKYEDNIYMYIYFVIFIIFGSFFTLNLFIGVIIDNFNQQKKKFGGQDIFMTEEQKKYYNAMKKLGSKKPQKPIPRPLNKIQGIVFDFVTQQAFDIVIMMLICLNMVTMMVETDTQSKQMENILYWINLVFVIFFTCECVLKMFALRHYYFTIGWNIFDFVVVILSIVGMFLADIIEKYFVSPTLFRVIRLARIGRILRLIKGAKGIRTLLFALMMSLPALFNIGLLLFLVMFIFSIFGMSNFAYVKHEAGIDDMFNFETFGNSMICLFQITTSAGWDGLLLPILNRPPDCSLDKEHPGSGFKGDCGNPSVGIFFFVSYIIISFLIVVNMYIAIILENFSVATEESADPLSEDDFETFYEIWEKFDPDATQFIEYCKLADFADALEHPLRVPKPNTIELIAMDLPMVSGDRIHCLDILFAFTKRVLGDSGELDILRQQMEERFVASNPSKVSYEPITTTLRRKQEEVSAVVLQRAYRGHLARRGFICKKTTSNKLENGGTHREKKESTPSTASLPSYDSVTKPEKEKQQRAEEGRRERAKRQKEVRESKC

CCCCCCCCCCCCCCCC(=O)N[C@@H](CCC(=O)NCCOCCOCCC(=O)NCCOCCOCCC(=O)NCCCC[C@H](NC(=O)[C@H](CC(=O)O)NC(=O)[C@H](CC(C)C)NC(=O)[C@H](Cc1ccc(O)cc1)NC(=O)[C@H](CCCCN)NC(=O)[C@H](CO)NC(=O)[C@H](Cc1ccc(O)cc1)NC(=O)[C@H](CC(=O)O)NC(=O)[C@H](CO)NC(=O)[C@@H](NC(=O)[C@H](Cc1ccccc1)NC(=O)[C@@H](NC(=O)CNC(=O)[C@H](CCC(N)=O)NC(=O)[C@@H](CO)NC(=O)[C@@H](N)Cc1c[nH]cn1)[C@@H](C)O)[C@@H](C)O)C(=O)N[C@@H](CCCNC(=N)N)C(=O)N[C@@H](CCCNC(=N)N)C(=O)N[C@@H](C)C(=O)N[C@@H](CCC(N)=O)C(=O)N[C@@H](CC(=O)O)C(=O)N[C@@H](Cc1ccccc1)C(=O)N[C@H](C(=O)N[C@@H](CCC(N)=O)C(=O)N[C@@H](Cc1c[nH]c2ccccc12)C(=O)N[C@@H](CC(C)C)C(=O)N[C@@H](CC(C)C)C(=O)N[C@@H](CC(N)=O)C(=O)N[C@H](C(=O)NCC(=O)NCC(=O)N1CCC[C@H]1C(=O)N[C@@H](CO)C(=O)N[C@@H](CO)C(=O)NCC(=O)N[C@@H](C)C(=O)N1CCC[C@H]1C(=O)N1CCC[C@H]1C(=O)N1CCC[C@H]1C(=O)N[C@@H](CO)C(N)=O)[C@@H](C)O)C(C)C)C(=O)O  urea (rhesus monkey, female; subcutaneous, 60 µg/kg once daily, 28 days): 6.54 ± 1.17 mmol/L
CC[C@H](C)[C@H](NC(=O)[C@H](CCCN)NC(=O)[C@H](CC(=O)O)NC(=O)[C@H](CC(C)C)NC(=O)C(C)(CC(C)C)NC(=O)[C@@H](NC(=O)[C@H](CO)NC(=O)[C@H](Cc1ccc(O)cc1)NC(=O)[C@H](CC(=O)O)NC(=O)[C@H](CO)NC(=O)[C@@H](NC(=O)[C@H](Cc1ccccc1)NC(=O)[C@@H](NC(=O)CNC(=O)[C@H](CCC(=O)O)NC(=O)C(C)(C)NC(=O)[C@@H](N)Cc1ccc(O)cc1)[C@@H](C)O)[C@@H](C)CC)[C@@H](C)CC)C(=O)N[C@@H](Cc1c[nH]cn1)C(=O)N[C@@H](CCC(N)=O)C(=O)NC(C)(C)C(=O)N[C@@H](CC(=O)O)C(=O)N[C@@H](Cc1ccccc1)C(=O)N[C@H](C(=O)N[C@@H](CCC(=O)O)C(=O)N[C@@H](Cc1ccc(O)cc1)C(=O)N[C@@H](CCCCNC(=O)COCCOCCNC(=O)COCCOCCNC(=O)CC[C@H](NC(=O)CCCCCCCCCCCCCCCCCCC(=O)O)C(=O)O)C(=O)N[C@@H](CC(C)C)C(=O)N[C@@H](CCC(=O)O)C(=O)NCC(=O)NCC(=O)N1CCC[C@H]1C(=O)N[C@@H](CO)C(=O)N[C@@H](CO)C(=O)NCC(=O)N[C@@H](C)C(=O)N1CCC[C@H]1C(=O)N1CCC[C@H]1C(=O)N1CCC[C@H]1C(=O)N[C@@H](CO)C(N)=O)C(C)C (stereo partly shown)  tmax (human; subcutaneous, 0.3 to 25 mg single dose, range): 8 to 96 h
CC[C@H](C)[C@@H]1NC(=O)[C@H](CC(=O)O)NC(=O)[C@H]([C@@H](C)O)NC(=O)[C@@H]2CSSC[C@@H]3NC(=O)[C@H](CC(C)C)NC(=O)[C@H](CC(N)=O)NC(=O)[C@H](CC(C)C)NC(=O)[C@H](CCCNC(=N)N)NC(=O)[C@H](Cc4ccc(O)cc4)NC(=O)[C@H](CCCCN)NC(=O)[C@H](CCSC)NC(=O)[C@H](CO)NC(=O)[C@H]([C@@H](C)O)NC(=O)[C@H](CCCNC(=N)N)NC(=O)[C@H](CSSC[C@H](NC(=O)[C@H]([C@@H](C)O)NC(=O)[C@H](CCCCN)NC(=O)[C@H](CCCNC(=N)N)NC3=O)C(=O)NCC(=O)N[C@@H](CO)C(=O)N[C@H](C(=O)O)CSSC[C@H](NC(=O)[C@@H](NC(=O)[C@@H](N)CCCNC(=N)N)[C@@H](C)O)C(=O)N[C@@H](CCCCN)C(=O)N[C@@H](CC(=O)O)C(=O)N[C@@H](CC(C)C)C(=O)N[C@@H]([C@@H](C)CC)C(=O)N3CCC[C@H]3C(=O)N[C@@H](C(C)C)C(=O)N[C@@H](CO)C(=O)N[C@@H](CCC(=O)O)C(=O)N2)NC(=O)[C@H](CCCNC(=N)N)NC1=O  association time constant (KcsA-Shaker chimera channel; two-electrode voltage clamp; Xenopus oocytes; 30 nM, after TEA washout): 27 ± 3 s
Cc1ccc(NS(=O)(=O)c2c(C(=O)N3CCCCCC3)c(C)n(C)c2C)c(Cl)c1  relative infection (Monkeypox virus; Vero C1008, wild type; 0.01 µM, 72 h; relative to: untreated): 98% and 100%
CC(C)C[C@@H]1NC(=O)[C@H](CCCNC(=N)N)NC(=O)[C@@H]2CCCN2C(=O)[C@@H]2CSSC[C@H](NC(=O)CNC(=O)[C@@H]3CCCN3C(=O)[C@H](CCCCN)NC(=O)[C@H](CC(=O)O)NC(=O)[C@@H](NC(=O)CN)C(C)C)C(=O)N[C@@H](CCCNC(=N)N)C(=O)N[C@@H](Cc3ccc(O)cc3)C(=O)N[C@@H](CC(C)C)C(=O)N[C@@H](Cc3ccccc3)C(=O)NCC(=O)NCC(=O)N[C@H]3CSSC[C@H](NC(=O)CNC1=O)C(=O)N[C@@H](CCCCN)C(=O)NCC(=O)N[C@@H](CCCCN)C(=O)NCC(=O)N[C@@H](Cc1c[nH]cn1)C(=O)N[C@@H](CC(=O)O)C(=O)N[C@@H](Cc1ccc(O)cc1)C(=O)N[C@H](C(=O)N[C@@H](C)C(=O)N[C@@H](Cc1c[nH]c4ccccc14)C(=O)N[C@@H](CC(=O)O)C(=O)NCC(=O)N[C@H](C(=O)N[C@@H](Cc1ccccc1)C(=O)N[C@@H](CO)C(=O)N[C@@H](CC(=O)O)C(=O)O)[C@@H](C)O)CSSC[C@H](NC(=O)[C@H](CC(=O)O)NC(=O)[C@H](CC(=O)O)NC(=O)[C@H](CC(=O)O)NC(=O)[C@H](CO)NC(=O)[C@H](CCCCN)NC3=O)C(=O)N2  inactivation time constant ratio (SCN8A (Homo sapiens, UniProt Q9UQD0); sodium current, automated patch clamp; HEK293; 1 µM, 50 ms depolarizing pulse; relative to: compound over control): 3.58 ± 0.54
CC(C)n1ccn2cc(C(=O)NCc3ccc(F)cc3F)c(=O)c(O)c2c1=O  EC50 (HIV-1; viral replication, single-round vector infection; IN L74M/G140C/Q148R): 158 ± 22.1 nM
CC[C@@H](C)[C@@H](NC(=O)[C@@H](CCCCN)NC(=O)[C@@H](CCCCN)NC(=O)[C@@H](CC(C)C)NC(=O)[C@@H](Cc1c[nH]c2ccccc12)NC(=O)CN)C(=O)NCC(=O)N[C@H](CCCCN)C(=O)N[C@H](CCCCN)C(=O)N[C@@H](C(=O)N[C@H](CCC(=O)O)C(=O)N[C@H](CCCNC(=N)N)C(=O)N[C@@H](C(=O)NCC(=O)N[C@H](CCC(N)=O)C(=O)N[C@H](Cc1c[nH]cn1)C(=O)N[C@@H](C(=O)N[C@H](CCCNC(=N)N)C(=O)N[C@H](CC(=O)O)C(=O)N[C@H](C)C(=O)N[C@@H](C(=O)N[C@@H](C(=O)N[C@H](CCC(N)=O)C(=O)N[C@@H](C(=O)N[C@@H](C(=O)NCC(=O)N[C@@H](C(=O)N[C@H](C)C(=O)N[C@H](CCC(N)=O)C(=O)N[C@H](CCC(N)=O)C(=O)N[C@H](C)C(=O)N[C@H](C)C(=O)N[C@H](CC(N)=O)C(=O)N[C@@H](C(=O)N[C@H](C)C(=O)N[C@H](C)C(=O)N[C@@H](C(=O)N[C@H](CC(C)C)C(=O)N[C@H](CCCCN)C(N)=O)[C@H](C)O)C(C)C)C(C)C)[C@H](C)CC)[C@H](C)O)[C@H](C)CC)[C@H](C)O)[C@H](C)O)C(C)C)[C@H](C)CC  MIC (Escherichia coli; broth microdilution; ATCC 25922, CAMHB): 1020 µg/mL (≈ 244 µM)
Nc1ncnc2c1ncn2C1CCC(OC(C(=O)O)P(=O)(O)O)C1 (racemic)  fold resistance (HIV-1 reverse transcriptase E138K; enzyme activity, inhibitor; added: poly(rU)·oligo(dA), [3H]dATP; relative to: mutant over wild type): 0.7 fold
Cc1cc(/C=C/C#N)cc(C)c1-n1cnc2cnc(Nc3ccc(C#N)cc3)nc21  EC50 (HIV-1; viral replication, single-round infection; RT mutant K103N/Y181C): 41.4 ± 3.6 nM
CCCCCCCCCCCCCCCC(=O)N[C@@H](CCC(=O)NCCCC[C@H](NC(=O)[C@H](CC(=O)O)NC(=O)[C@H](CO)NC(=O)[C@@H](NC(=O)[C@H](Cc1ccccc1)NC(=O)[C@@H](NC(=O)CNC(=O)[C@H](CCC(N)=O)NC(=O)[C@H](C)NC(=O)[C@@H](Cc1ccc(O)cc1)NC(C)=O)[C@@H](C)O)[C@@H](C)O)C(=O)N[C@@H](CO)C(=O)N[C@@H](CCCCN)C(=O)N[C@@H](Cc1ccc(O)cc1)C(=O)N[C@@H](CC(C)C)C(=O)N[C@@H](CC(=O)O)C(=O)N[C@@H](CCC(=O)O)C(=O)N[C@@H](CCCNC(=N)N)C(=O)N[C@@H](C)C(=O)N[C@@H](C)C(=O)N[C@@H](CCC(N)=O)C(=O)N[C@@H](CC(=O)O)C(=O)N[C@@H](Cc1ccccc1)C(=O)N[C@H](C(=O)N[C@@H](CCC(N)=O)C(=O)N[C@@H](Cc1c[nH]c2ccccc12)C(=O)N[C@@H](CC(C)C)C(=O)N[C@@H](CC(C)C)C(=O)N[C@@H](CCC(=O)O)C(=O)NCC(=O)NCC(=O)N1CCC[C@H]1C(=O)N[C@@H](CO)C(=O)N[C@@H](CO)C(=O)NCC(=O)N[C@@H](C)C(=O)N1CCC[C@H]1C(=O)N1CCC[C@H]1C(=O)N1CCC[C@H]1C(=O)N[C@@H](CO)C(N)=O)C(C)C)C(=O)O  clearance (male Wistar rat, plasma; intravenous, 0.02 mg/kg): 0.737 mL/min/kg
Cc1cc(/C=C/C#N)cc(C)c1Nc1nc(Nc2ccc(C#N)cc2)ncc1N  EC50 (HIV-1; viral replication, single-round infection; RT mutant K101E/M184I): 1.3 ± 0.6 nM
O=C(NCc1ccc(F)cc1F)c1cn2c(c(O)c1=O)C(=O)N(CCCCCCO)CC2  EC50 (human immunodeficiency virus 1; single-round vector infection; integrase R263K): 32.2 ± 2.5 nM
N=C(N)NCc1cn([C@@H]2[C@@H](OCCn3cc(COCCOCCOCCn4cc(-c5cc(OCCOCCO)c(C#Cc6cc(OCCOCCO)c(C#Cc7cc(OCCOCCO)c(-c8cn(CCOCCOCCOCc9cn(CCO[C@H]%10O[C@H](CO)[C@@H](O)[C@H](O)[C@@H]%10n%10cc(CNC(=N)N)nn%10)nn9)nn8)cc7OCCOCCO)cc6OCCOCCO)cc5OCCOCCO)nn4)nn3)O[C@H](CO)[C@@H](O)[C@@H]2O)nn1  IC50 (DC-SIGN (human); viral trans-infection; Jurkat expressing DC-SIGN, Severe acute respiratory syndrome coronavirus 2; rVSV-luc pseudovirus): > 100000 nM

Repeated from above:
CC[C@H](C)[C@@H]1NC(=O)[C@H](CC(=O)O)NC(=O)[C@H]([C@@H](C)O)NC(=O)[C@@H]2CSSC[C@@H]3NC(=O)[C@H](CC(C)C)NC(=O)[C@H](CC(N)=O)NC(=O)[C@H](CC(C)C)NC(=O)[C@H](CCCNC(=N)N)NC(=O)[C@H](Cc4ccc(O)cc4)NC(=O)[C@H](CCCCN)NC(=O)[C@H](CCSC)NC(=O)[C@H](CO)NC(=O)[C@H]([C@@H](C)O)NC(=O)[C@H](CCCNC(=N)N)NC(=O)[C@H](CSSC[C@H](NC(=O)[C@H]([C@@H](C)O)NC(=O)[C@H](CCCCN)NC(=O)[C@H](CCCNC(=N)N)NC3=O)C(=O)NCC(=O)N[C@@H](CO)C(=O)N[C@H](C(=O)O)CSSC[C@H](NC(=O)[C@@H](NC(=O)[C@@H](N)CCCNC(=N)N)[C@@H](C)O)C(=O)N[C@@H](CCCCN)C(=O)N[C@@H](CC(=O)O)C(=O)N[C@@H](CC(C)C)C(=O)N[C@@H]([C@@H](C)CC)C(=O)N3CCC[C@H]3C(=O)N[C@@H](C(C)C)C(=O)N[C@@H](CO)C(=O)N[C@@H](CCC(=O)O)C(=O)N2)NC(=O)[C@H](CCCNC(=N)N)NC1=O  association time constant (KcsA-Shaker chimera channel; two-electrode voltage clamp; Xenopus oocytes; 30 nM, after TEA washout): 27 ± 3 s
Cc1ccc(NS(=O)(=O)c2c(C(=O)N3CCCCCC3)c(C)n(C)c2C)c(Cl)c1  relative infection (Monkeypox virus; Vero C1008, wild type; 0.01 µM, 72 h; relative to: untreated): 98% and 100%
